Results gathered from unrelated publications.
Every numbered part comes from another study and shows a few of its results, in no order. Substitutions count along the parent as printed.

Study 1 — technique: competition protein-binding microarray; molecule type: double-stranded DNA, one strand shown; medium: in vitro; tested at: 2 µM; together with: Pho4 competitor, 0.05 µM; direction: higher = stronger binding; measurement: fluorescence intensity; constant ends, left off below: … GTCTTGATTCGCTTGACGCTGCTG
Target: Centromere-binding protein 1, full length, His-tagged (CBF1, Saccharomyces cerevisiae, UniProt P17106, residues 1-351)
Sequence of UniProt P17106 (whole entry, looked up): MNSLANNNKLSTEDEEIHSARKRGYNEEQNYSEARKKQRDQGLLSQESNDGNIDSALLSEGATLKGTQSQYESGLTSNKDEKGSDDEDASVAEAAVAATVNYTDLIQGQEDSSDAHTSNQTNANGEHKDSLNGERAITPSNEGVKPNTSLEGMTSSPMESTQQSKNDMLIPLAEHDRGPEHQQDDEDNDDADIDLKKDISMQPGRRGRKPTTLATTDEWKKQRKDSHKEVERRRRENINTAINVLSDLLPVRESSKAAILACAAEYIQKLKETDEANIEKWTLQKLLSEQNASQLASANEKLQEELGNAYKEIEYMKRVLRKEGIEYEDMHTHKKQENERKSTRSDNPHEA
Setting: whole 60-bp probe, lowest competitor level
GTCTTGTCTCATTTTCACGTGGCTTTCCCCACTTCA: 671 a.u.
ACAGCGAGGCCATTGCACGTGCAAATAAATTGAATC: 3520 a.u.
AAAGCGGTAATTTTTCACGTGAGTTCACATATCTAT: 914 a.u.
ATCTTCTTTCACAATCACGTGAAACTTCCTCGATAT: 3310 a.u.
ACTGCCAGGAACTGGCACGTTAGCCCTATTACGATC: 79.4 a.u.
AGGGCAGCGCGCGACCGCGTGTCCTTTCACAGCGCA: 52.4 a.u.
AAATTACTAAGTTGGACAGTGGGTGACGCCGTATGA: 63.9 a.u.
AAACTAATGGATTGGCGCGTGTACTATATATATTCA: 113 a.u.

Study 2 — target: vanadate, free oxyanion; technique: microfluidic competitive inhibition; medium: in vitro, cell-free expressed; tested at: not given; direction: lower = stronger binding; measurement: oxyanion analog dissociation constant
Setting: derived from inhibition constants, unchanged parent 676 nM
Starting sequence: PafA, mature enzyme, eGFP fusion (Elizabethkingia meningoseptica, UniProt Q9KJX5); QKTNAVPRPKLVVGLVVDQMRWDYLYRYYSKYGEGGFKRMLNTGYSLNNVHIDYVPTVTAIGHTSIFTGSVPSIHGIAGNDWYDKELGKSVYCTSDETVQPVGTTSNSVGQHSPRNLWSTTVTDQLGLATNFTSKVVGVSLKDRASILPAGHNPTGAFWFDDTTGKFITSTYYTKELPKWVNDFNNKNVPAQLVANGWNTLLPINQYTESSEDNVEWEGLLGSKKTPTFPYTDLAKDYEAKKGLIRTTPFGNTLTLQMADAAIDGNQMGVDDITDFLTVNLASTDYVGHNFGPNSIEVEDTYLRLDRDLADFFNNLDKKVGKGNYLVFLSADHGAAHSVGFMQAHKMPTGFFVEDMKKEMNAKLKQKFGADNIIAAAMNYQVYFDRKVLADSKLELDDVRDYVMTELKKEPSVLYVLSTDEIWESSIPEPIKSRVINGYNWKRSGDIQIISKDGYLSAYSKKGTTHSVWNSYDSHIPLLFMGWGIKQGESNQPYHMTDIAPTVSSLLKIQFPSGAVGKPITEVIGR
L25G: 577 nM
L87V: 615 nM
K224V: 958 nM
D81G: 1780 nM
T274G: 512 nM

Study 3 — target: CCND2, cyclin fold, Cln2 fusion (human); technique: yeast growth competition, sequencing; medium: yeast; setting: strong parent motif; relative to: not given; direction: higher = stronger binding; measurement: normalised enrichment score
Starting sequence: viral docking peptide; YKVKRRLVFGADD; partner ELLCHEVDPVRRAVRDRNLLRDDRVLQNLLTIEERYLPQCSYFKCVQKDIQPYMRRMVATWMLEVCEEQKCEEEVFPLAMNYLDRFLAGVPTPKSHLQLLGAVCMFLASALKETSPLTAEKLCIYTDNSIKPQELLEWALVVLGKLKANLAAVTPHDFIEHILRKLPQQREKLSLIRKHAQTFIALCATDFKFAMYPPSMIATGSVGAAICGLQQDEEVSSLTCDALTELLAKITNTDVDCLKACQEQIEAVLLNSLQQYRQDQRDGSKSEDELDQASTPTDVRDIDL
V3P: 0.663
F9Q: 0.321
K2S: 2.04
R6G: -0.0317
K2M: 1.35
K2Q: 1.72
D13A: 0.267
D12W: 0.698
G10D: 2.89
L7E: -0.09
G10Q: 1.02
V8H: 0.852
V3I: 1.37
V8S: 2.83

Study 4 — technique: RNA Bind-n-Seq; molecule type: RNA; medium: in vitro; tested at: not given; setting: RNA with constant flanks, ends assumed; relative to: input RNA pool; direction: higher = stronger binding; measurement: bound/input enrichment
Target: RING finger protein unkempt homolog, zinc fingers 1-6, GST-SBP tag (UNK, Homo sapiens, UniProt Q9C0B0, residues 30-357)
Sequence of UniProt Q9C0B0 (30-357, looked up): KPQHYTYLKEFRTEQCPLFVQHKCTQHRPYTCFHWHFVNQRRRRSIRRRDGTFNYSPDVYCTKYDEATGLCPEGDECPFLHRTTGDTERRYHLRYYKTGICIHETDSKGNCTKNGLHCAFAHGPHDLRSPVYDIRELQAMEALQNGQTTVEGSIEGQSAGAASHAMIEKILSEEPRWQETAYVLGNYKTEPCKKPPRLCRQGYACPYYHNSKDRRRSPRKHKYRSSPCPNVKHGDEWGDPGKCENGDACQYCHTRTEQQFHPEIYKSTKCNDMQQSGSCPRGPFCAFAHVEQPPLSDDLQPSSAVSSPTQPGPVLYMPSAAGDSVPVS
Constant ends, left off below: GGGAGUUCUACAGUCCGACGAUC … CAACAGAGGAUUGAGCAUCA
AUUGAACCUGUAUUUCCGGAGAACACAGAAAACUCUGAAAAAAUAUCCCUUCAGCUUCAUUCCGCUCUGACUUCAAAUUCAUCUUGGGUUCAGUGUCCCAGCCAUUUGGAACUCAUGAAU: 0.124 ratio
GUAAUGGACGUCAACACUGCUCUACAAGAGGUGCUGAAGACCGCCCUCAUCCACGAUGGCCCCGCACGUGGCAUACGCGAAGCUGCCAAAGCCUUAGACAAGCGCCAAGCCCAUCUGUGU: 0.162 ratio
AGCAUUUUUUCCUGUUAACUUUAUAUUACAAAAUCCGUUCUACCAUAACAAUACAGAGGAACCCGCUGUGUUACUGCACCAGUGUUAUAGGUAACUUCAGUAUAUUAUGAACAAAUCAAA: 0.613 ratio
AAGGAACUGGAAGUACCUCAUUUUCACCAUGAGCUUGUAUAUGAAGCUAUUAUAAUGGUUUCCGAGUCAACUGGAGAAAGUACAUUUAAGAUGAUUUUGGAUUUAUUAAAGUCCCUUUGG: 0.182 ratio
GCAGGGCAAGAGGAUUAUGACAGAUUACGACCGCUGAGUUAUCCACAAACAGAUGUAUUUCCCGUCUGUUUUUCAGUGGUCUCUCCAUCUUCAUUUGAAAACGUGAAAGAAAAGUGGGUG: 0.388 ratio
AGGCAUGAGCUCUUGGCAGGAGUGGGCUCUGAGCAGGUGUCAUAUUCAUUCUUUACAAACCACCGAGAAAUAAUUUCAUCCCCCAACUGUAGUAAUUGUUACAAUUUUAUAUAAAAAAUU: 13.1 ratio
GUGAUGUUACUCUCCAUUUUUGGUACCAGUUCUGAGACUGUAAGACUUUUCAUCUGGGACUUCCGCACACACUGAAUCGAAGUUGUGAUACGCGGAGCGGGAGGUGGGCAUAGACUCUAU: 0.302 ratio
CCUACAAUAAUGAAAACCUACAGGAAUUUUUUUAUUUUUCAUUUUCUUCUUAGGCACCGUCCGUCUUUUUCCCCCAGGCAGAUGAUUCUGAGUGUGGGAGUGUGUCUGCACAUGUUAAAA: 0.478 ratio

Some of these lines once more (study 4):
GCAGGGCAAGAGGAUUAUGACAGAUUACGACCGCUGAGUUAUCCACAAACAGAUGUAUUUCCCGUCUGUUUUUCAGUGGUCUCUCCAUCUUCAUUUGAAAACGUGAAAGAAAAGUGGGUG: 0.388 ratio
AGGCAUGAGCUCUUGGCAGGAGUGGGCUCUGAGCAGGUGUCAUAUUCAUUCUUUACAAACCACCGAGAAAUAAUUUCAUCCCCCAACUGUAGUAAUUGUUACAAUUUUAUAUAAAAAAUU: 13.1 ratio
GUGAUGUUACUCUCCAUUUUUGGUACCAGUUCUGAGACUGUAAGACUUUUCAUCUGGGACUUCCGCACACACUGAAUCGAAGUUGUGAUACGCGGAGCGGGAGGUGGGCAUAGACUCUAU: 0.302 ratio
CCUACAAUAAUGAAAACCUACAGGAAUUUUUUUAUUUUUCAUUUUCUUCUUAGGCACCGUCCGUCUUUUUCCCCCAGGCAGAUGAUUCUGAGUGUGGGAGUGUGUCUGCACAUGUUAAAA: 0.478 ratio
